# Published values collected from several papers.
# Lines come from different studies, so protocols differ.
# CBF1 full length, His-tagged: Centromere-binding protein 1, full length, His-tagged (CBF1, Saccharomyces cerevisiae, UniProt P17106, residues 1-351)
# UniProt P17106, sequence (whole entry, looked up): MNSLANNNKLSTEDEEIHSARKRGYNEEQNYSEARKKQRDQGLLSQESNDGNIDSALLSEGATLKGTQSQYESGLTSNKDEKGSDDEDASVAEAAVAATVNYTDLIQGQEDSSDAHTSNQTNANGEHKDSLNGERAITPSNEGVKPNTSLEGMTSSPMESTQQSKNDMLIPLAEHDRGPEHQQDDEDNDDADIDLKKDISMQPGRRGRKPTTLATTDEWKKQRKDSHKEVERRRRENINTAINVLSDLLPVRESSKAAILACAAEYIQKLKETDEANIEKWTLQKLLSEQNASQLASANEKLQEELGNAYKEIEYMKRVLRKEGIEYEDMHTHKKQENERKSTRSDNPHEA
# UniProt Q9UJQ4, sequence (whole entry, looked up): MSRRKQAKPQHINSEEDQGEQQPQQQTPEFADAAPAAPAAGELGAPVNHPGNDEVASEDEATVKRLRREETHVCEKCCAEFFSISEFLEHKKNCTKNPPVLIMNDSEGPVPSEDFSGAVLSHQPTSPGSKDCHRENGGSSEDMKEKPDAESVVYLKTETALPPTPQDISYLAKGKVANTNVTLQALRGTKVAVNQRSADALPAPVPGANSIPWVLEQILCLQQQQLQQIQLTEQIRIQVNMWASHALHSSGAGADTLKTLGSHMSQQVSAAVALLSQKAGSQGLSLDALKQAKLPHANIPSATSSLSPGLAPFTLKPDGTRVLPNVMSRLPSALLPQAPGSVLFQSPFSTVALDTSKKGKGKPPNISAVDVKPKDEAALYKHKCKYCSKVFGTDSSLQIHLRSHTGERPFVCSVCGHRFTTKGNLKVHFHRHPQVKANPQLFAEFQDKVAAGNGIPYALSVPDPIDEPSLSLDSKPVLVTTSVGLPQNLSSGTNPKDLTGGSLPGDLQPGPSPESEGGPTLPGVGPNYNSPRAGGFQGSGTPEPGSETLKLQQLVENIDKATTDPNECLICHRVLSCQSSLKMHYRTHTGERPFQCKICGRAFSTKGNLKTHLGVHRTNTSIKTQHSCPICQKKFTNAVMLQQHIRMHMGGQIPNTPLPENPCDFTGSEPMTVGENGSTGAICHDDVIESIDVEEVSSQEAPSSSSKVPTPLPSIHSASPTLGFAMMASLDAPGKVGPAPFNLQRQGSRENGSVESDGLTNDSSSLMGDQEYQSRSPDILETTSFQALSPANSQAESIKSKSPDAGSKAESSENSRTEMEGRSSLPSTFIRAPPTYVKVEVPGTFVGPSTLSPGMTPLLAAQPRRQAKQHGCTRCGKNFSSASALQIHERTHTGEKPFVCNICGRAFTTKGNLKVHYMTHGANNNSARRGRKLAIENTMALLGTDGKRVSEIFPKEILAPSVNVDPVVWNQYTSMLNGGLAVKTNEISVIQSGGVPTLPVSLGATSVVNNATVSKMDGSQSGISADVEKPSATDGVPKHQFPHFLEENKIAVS
# UniProt Q99583, sequence (220-300, looked up): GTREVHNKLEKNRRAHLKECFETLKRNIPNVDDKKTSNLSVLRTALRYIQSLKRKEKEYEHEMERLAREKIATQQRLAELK
Substance,target,assay,system,setting,how to read,measurement,value
"PhoQ, residues 284 288 289 292 302 303 SLSLLA","PhoP, residues 12 14 15 18 19 AQALL (Escherichia coli, UniProt P23836)","Sort-seq, refers to: YFP reporter",E. coli,"PhoQ-PhoP variant library, with: 10 µM Mg2+","reference: high Mg2+ state, higher = stronger signaling",fold induction,8.42
GGTTGGTGTGGTTGG (2'F-ANA at 1 2 3 5 7 9 10 12 13 14),"Prothrombin, mature alpha-thrombin (F2, Homo sapiens, UniProt P00734)","aptamer microarray, sandwich","DNA with 2'F-ANA, in vitro","200 nM, whole 15-mer aptamer, many near background, with: Cy3 exosite-II aptamer, 400 nM",higher = stronger binding,mean fluorescence intensity,49.5 a.u.
TGCGCAACAACTTGATGCGTGGGTGTATGTCTAGAAGTCTTGATTCGCTTGACGCTGCTG,"CBF1 full length, His-tagged",competition protein-binding microarray,"double-stranded DNA, one strand shown, in vitro","2 µM, whole 60-bp probe, lowest competitor level, with: Pho4 competitor, 0.05 µM",higher = stronger binding,fluorescence intensity,73.9 a.u.
CACCGTGG,"Max-binding protein MNT, bHLH-zipper, MAX partner unstated (MNT, Homo sapiens, UniProt Q99583, residues 220-300)",protein-binding microarray,"double-stranded DNA, one strand shown, in vitro","not given, k-mer, scored over probes, only values ≥0.25",higher = stronger binding,E-score,0.254
ATTTTCCTCAATCTGCTCGTGTAAGTGTCGGCCCGGGTCTTGATTCGCTTGACGCTGCTG,"CBF1 full length, His-tagged",competition protein-binding microarray,"double-stranded DNA, one strand shown, in vitro","2 µM, whole 60-bp probe, lowest competitor level, with: Pho4 competitor, 0.05 µM",higher = stronger binding,fluorescence intensity,70.8 a.u.
CCGTGAAG,"Sal-like protein 4, full length isoform A (SALL4, Homo sapiens, UniProt Q9UJQ4, residues 1-1053)",universal PBM,"double-stranded DNA, one strand shown, in vitro","600 nM, 8-mer, flanks averaged, mean of replicates",higher = stronger binding,E-score,-0.204

# Excerpt of the above:
Substance,target,assay,system,setting,how to read,measurement,value
ATTTTCCTCAATCTGCTCGTGTAAGTGTCGGCCCGGGTCTTGATTCGCTTGACGCTGCTG,"CBF1 full length, His-tagged",competition protein-binding microarray,"double-stranded DNA, one strand shown, in vitro","2 µM, whole 60-bp probe, lowest competitor level, with: Pho4 competitor, 0.05 µM",higher = stronger binding,fluorescence intensity,70.8 a.u.
